Measurements collected from several papers.
Protocols differ between the studies behind these lines. Values joined by “and” are separate records of one study, mostly repeats; a detail may differ. Numbers after ± are the reported error.

Compound	tested on	assay	system	conditions	scale	quantity	value
CO[C@H]1CC[C@H](N2C(=O)CNc3ncc(-c4ccc(C(C)(C)O)nc4)nc32)CC1	–	flow cytometry	stimulated T cells, human, blood	60 mg single dose, 3 h, median	reference: baseline	p4EBP1 change from baseline	-44.3%
N#Cc1ccc2c(c1)[C@H]1CCCN(C(=O)c3ccc4[nH]cnc4c3)[C@H]1C2	–	item: androstenedione	human female, Phase II trial	oral, 240 mg once daily, last treatment, HPA axis, mean	–	plasma level	4.64 nmol/L
COc1ccccc1[C@H](Cn1c(=O)n(C(C)(C)C(=O)O)c(=O)c2c(C)c(-c3ncco3)sc21)OC1CCOCC1	–	[1-13C]acetate infusion, isotopomer analysis	overweight or obese healthy men, plasma VLDL-TG palmitate	oral, 20 mg single dose, 6 h post-dose, with: oral fructose	–	fractional hepatic DNL	10.5 % new palmitate
N#Cc1ccn2c(-c3ccncc3)c(-c3ccc(F)cc3)nc2c1	–	kinase binding, competitor, MIB/MS competition, item: CKA2	Candida albicans cell lysate	1 µM	reference: DMSO	log2 fold change	0.404
COc1cc(Nc2ncc3c(n2)-c2ccc(Cl)cc2C(c2c(F)cccc2OC)=NC3)ccc1C(=O)O	–	–	mouse, NB-EBc1 neuroblastoma xenograft	oral, 20.8 mg/kg, day 7	reference: vehicle	relative tumour volume T/C	0.73
Cn1cc(-c2ccc(-c3cncc(Cl)c3N3CCC4(CCNC4=O)CC3)cc2)cn1	COLO 205	gene expression, microarray, item: VIL1 mRNA	–	concentration not given, 2 h	reference: untreated cells	log2 fold change	-2.13
C[C@H]1O[C@@H](O[C@H]2CC[C@@]3(C)[C@@H](CC[C@]4(C)[C@@H]3C=C[C@]35OC[C@@]6(CCC(C)(C)C[C@H]63)[C@@H](O)C[C@]54C)[C@]2(C)CO)[C@H](O)[C@@H](O[C@@H]2O[C@H](CO)[C@@H](O)[C@H](O)[C@H]2O)[C@H]1O	–	–	chronic-plus-binge ethanol mice, plasma	oral, 10 mg/kg/day for 7 d, 168 h	–	triglyceride level	0.591 mM and 0.73 mM and 0.848 mM and 0.769 mM and 0.809 mM and 0.946 mM
CC(=O)Oc1cc2c(s1)CCN(C(C(=O)C1CC1)c1ccccc1F)C2 (stereo not shown)	–	platelet aggregation, light transmittance aggregometry	human, platelet-rich plasma	30 min, IPA above 80 %, with: TRAP 15 µM	reference: patients	patients with IPA above threshold	0%
CC(c1cc2ccccc2s1)N(O)C(N)=O (stereo not shown)	–	item: 5,15-diHETE	human whole blood	3 µM, with: Escherichia coli	–	amount	20 ± 2 pg/mL blood
CC1(C)CCC(c2ccc(Cl)cc2)=C(CN2CCN(c3ccc(C(=O)NS(=O)(=O)c4ccc(N[C@H](CCN5CCOCC5)CSc5ccccc5)c(S(=O)(=O)C(F)(F)F)c4)cc3)CC2)C1	–	cell kill, PI exclusion flow cytometry	unclassified leukaemia cells, human	24 h	–	EC50	16 nM
O=C(O)CNC(=O)Cc1ccccc1	–	–	ventricular cardiomyocytes, C57BL/6 mouse	dose not given, 0.18 s	–	sarcomere length	1.63 µm
Cc1noc(C)c1-c1cc(C(O)(c2ccccn2)c2ccccn2)c2nc(C3CC3)[nH]c2c1	–	item: HEXIM1 expression	human, peripheral blood	1.4 mg, day 1, 1599 study	–	maximum induction	22.6%
CN[C@@H]1COc2c(S(=O)(=O)NC(=O)Nc3c4c(cc5c3CCC5)CCC4)cnn2C1	–	item: IL-1β	human participants, whole blood ex vivo	150 mg single dose, 24 h, with: LPS/ATP	reference: baseline	inhibition	70.2%
N#Cc1ccc(N2CCN(Cc3ccc(COc4cccc5c4CN([C@H]4CCC(=O)NC4=O)C5=O)cc3)CC2)c(F)c1	–	deuterium-hydrogen exchange	aqueous phosphate buffer	pH 7.4, 37 °C	–	exchange rate constant	-0.0205 h⁻¹
C=CCn1c(=O)c2cnc(Nc3ccc(N4CCN(C)CC4)cc3)nc2n1-c1ccc2c(n1)[C@@](O)(CC)CC2	–	–	SW1573 xenograft, NOD/SCID mice	oral, 80 mg/kg, day 28, once daily intermittent cycles	–	tumour volume difference	929 ± 35.4 mm3
CCCCc1nc2c(N)nc3ccccc3c2n1Cc1ccc(CN)cc1	–	TNF-α release, ELISA	PBMC, human	24 h	–	concentration	~10 µM
O=C(COc1ccc(Cl)cc1)NC12CC(c3nnc([C@H]4C[C@@H](OC(F)(F)F)C4)o3)(C1)C2	–	–	healthy human, PBMC	oral, 200 mg single dose, day 2, 24 h post-dose, median, with: sodium arsenite ex vivo	reference: baseline	CHAC1 mRNA change	-41.7%
O[C@H]1CCCN[C@@H]1CCCn1cnc2c(Cl)c(Cl)ccc21	–	ELISA, item: Pro-C3	healthy human volunteers, serum	50 mg, day 1, multiple ascending dose	–	maximum reduction	20.8%
CCN1CCN(Cc2ccc(Nc3ncc(F)c(-c4cc(F)c5nc6n(c5c4)[C@H](C)CCC6)n3)nc2)CC1	–	–	human advanced solid tumours	50 mg, phase Ia monotherapy RECIST 1.1	–	not evaluable response	0%

A few entries again:
Compound	tested on	assay	system	conditions	scale	quantity	value
O=C(COc1ccc(Cl)cc1)NC12CC(c3nnc([C@H]4C[C@@H](OC(F)(F)F)C4)o3)(C1)C2	–	–	healthy human, PBMC	oral, 200 mg single dose, day 2, 24 h post-dose, median, with: sodium arsenite ex vivo	reference: baseline	CHAC1 mRNA change	-41.7%
